Experimental data from different studies.
Protocols differ between the studies behind these lines. pEC50: −log10 of the molar value.

SMILES | cell line | assay | setting | quantity | result
O=C1N=C(N2CCCCN2)S/C1=C\c1ccc(F)cc1OC(=O)N1CCCC1 | NG108-cl | clomeleon fluorescence, measured: intracellular chloride reduction | 5 h | EC50 | inactive
C[C@]12CCCN1CC1=NNC(=O)c3cc(F)cc4[nH]c2c1c34 | T84 colorectal cancer cells | cell viability | concentration not given, added: with temozolomide | pEC50 | < 5.52
CCn1cc(-c2cc(Cn3ccoc3=N)cc3c2CCN([C@@H](C)c2cc(OC)ccn2)C3=O)c(C(F)(F)F)n1 | Panc 04.03 | cell growth | 120 h | pEC50 | 7.78
O=C(c1cc(Cc2n[nH]c(=O)c3ccccc23)ccc1F)N1CCN(C(=O)C2CC2)CC1 | MEF PTEN+/- | cell proliferation, CellTiter-Glo | 168 h | pEC50 | 5.70
O=C1N=C(N2CCCCC2)S/C1=C\c1cccc(O)c1 | NG108-cl | clomeleon fluorescence, measured: intracellular chloride reduction | 5 h | EC50 | inactive
O=C(Cc1ccccc1)Nc1nnc(CCSCCc2nnc(NC(=O)Cc3ccccc3)s2)s1 | TSE breast cancer cells | cell proliferation, automated cell counting | 144 h | pEC50 | 5.51
O=C1N=C(N2CCCCC2)S/C1=C\C1CCCC1 | NG108-cl | clomeleon fluorescence, measured: intracellular chloride reduction | 5 h | EC50 | inactive
CCC(C)(C)C(=O)C(=O)N1CCCC[C@H]1C(=O)N[C@H](CCc1ccc(OC)cc1)C(=O)N1[C@@H]2CC[C@H]1C[C@H](Nc1nc(NCCc3sc(N)nc3C)nc(N3CCn4ncnc4C3)n1)C2 | GFP-LC3 HeLa | GFP-LC3 puncta formation |  | pEC50 | 4.92
Cc1nc(NC(=O)N2CCC[C@H]2C(N)=O)sc1-c1ccnc(C(C)(C)C(F)(F)F)c1 | HCC1954 PIK3CA H1047R | cell viability, ATP luminescence | 120 h | pEC50 | 5.57
COc1cnc2cccc(N3CCc4c(cc(Cn5ccnc5C)cc4-c4cn(C)nc4C(F)(F)F)C3=O)c2c1 | RL | cell growth | 120 h | pEC50 | 7.38
CC(C)C[C@@H](C=O)NC(=O)[C@H](CC(C)C)NC(=O)[C@H](CC(C)C)NC(=O)OCc1ccccc1 | LDR | silenced CMV-GFP reporter derepression, qHTS |  | pEC50 | 5.30
O=C1N=C(N2CCCCC2)O/C1=C\c1ccccc1O | NG108-cl | clomeleon fluorescence, measured: intracellular chloride reduction | 5 h | EC50 | inactive
CCn1cc(-c2cc(Cn3ccnc3)cc3c2CCN([C@H](c2cc(OC)ccn2)C2CC2)C3=O)c(C(F)(F)F)n1 | RL | cell growth | 120 h | pEC50 | 7.72

Repeated from above:
SMILES | cell line | assay | setting | quantity | result
CCC(C)(C)C(=O)C(=O)N1CCCC[C@H]1C(=O)N[C@H](CCc1ccc(OC)cc1)C(=O)N1[C@@H]2CC[C@H]1C[C@H](Nc1nc(NCCc3sc(N)nc3C)nc(N3CCn4ncnc4C3)n1)C2 | GFP-LC3 HeLa | GFP-LC3 puncta formation |  | pEC50 | 4.92
